Assay results of several laboratories.
Compare with care: the assays were run in different laboratories. Values joined by “and” are separate records of one study, mostly repeats; a detail may differ. Numbers after ± are the reported error.

SMILES | test | system | conditions | plasma concentration
c1ccc(-c2nc(N3CCC(c4ccccn4)C3)c3ccccc3n2)nc1 (centres unmarked) | – | mouse, Balb/c female, plasma | oral, 12.5 mg/kg, 24 h, mean, with: aminobenzotriazole pretreatment | 55.7 ng/mL
CC(C)(C)c1cc(NC(=O)Nc2ccc(Oc3ccnc4[nH]c(=O)cnc34)cc2F)n(-c2ccccc2)n1 | – | NSG mouse, female, plasma | oral, 20 mg/kg, 1 h after last dose | 19.1 µM and 28.1 µM and 42.1 µM and 19.5 µM and 10.6 µM
Cc1cc([C@H]2C[C@H]3[C@@H](CF)SC(N)=N[C@@]3(c3ccc(F)cc3F)CO2)on1 | – | male 129/SVE wild-type mouse, plasma | subcutaneous, 30 mg/kg, 5 h | 0.101 µM
O=C1CCC(N2Cc3cc(CO)c(F)cc3C2=O)C(=O)N1 (centres unmarked) | – | CD-1 mouse, male | oral, 10 mg/kg parent drug, 0.67 h | 29.4 ± 14 ng/mL
CC(C)n1ncc2c(C(=O)NCC3(C)CNC3)cc(C3CC3)nc21 | – | mouse BALB/c female, plasma | intraperitoneal, 50 mg/kg, 1 h | 1640 ng/mL and 2820 ng/mL and 1750 ng/mL and 2190 ng/mL
O=[N+]([O-])c1ccc(-c2ccc(O)cc2)c2cccnc12 | – | ICR mouse, male | oral, 5 mg/kg, 0.25 h | 65.9 ng/mL
c1csc(CNc2cc[nH]n2)c1 | – | mouse, CD-1, male, plasma | oral, 20 mg/kg as HCl salt, 4 h | 0.016 µM
CCN1CCN(Cc2ccc(NC(=O)c3ccc(C)c(NC(=O)c4cncc(-c5cccs5)c4)c3)cc2C(F)(F)F)CC1 | LC-MS/MS | C57BL/6 mouse, plasma | intraperitoneal, 20 mg/kg single dose, 8 h | 59 ng/mL and 72 ng/mL and 49 ng/mL
CSc1cc(Oc2ccnc3[nH]c(=O)cnc23)ccc1NC(=O)Nc1cc(C(C)(C)C)nn1-c1ccccc1 | – | NSG mouse, female, tumor | oral, 20 mg/kg, 1 h after last dose | 11.7 µM and 11 µM and 6.99 µM and 9.98 µM
CCCCCN1C[C@H](O)[C@@H](O)[C@H](O)[C@@H]1CO | LC-MS/MS | mouse Hexb-/- total, plasma | 300 mg/kg/day, geometric mean | 3020 ng/mL
Cc1c(C(=O)O)ccc2c3n(nc12)[C@@H]1[C@H](C3)N(CC2CC2)[C@@]2(C(=O)Nc3cc(Cl)ccc32)[C@H]1c1cccc(Cl)c1F | – | female BALB/c nude mouse, SJSA-1 xenograft, plasma | oral, 2 mg/kg once daily, 7 h | 1.1 µM
Cc1cc([C@H]2C[C@H]3[C@@H](C)SC(N)=N[C@@]3(c3ccc(F)cc3F)CO2)on1 | – | male 129/SVE mouse, plasma | subcutaneous, 50 mg/kg, 3 h | 3.77 µM
CNC(=O)c1cc2c(Oc3ccc(NC(=O)C4(C(=O)Nc5ccc(F)cc5)CC4)cc3)ccnc2cc1OC | LC-MS/MS | mouse, NCI-H441 xenograft, plasma | oral, 10 mg/kg once daily for 14 days, 4 h | 9.71 µM
C[C@@H](O)[C@H]1C(=O)N2C(C(=O)O)=C(S[C@@H]3CN[C@H](C(=O)N(C)C)C3)[C@H](C)[C@H]12 | – | BALB/c mouse, male, plasma | intraperitoneal, 100 mg/kg, 4 h | 17800 ng/mL
